# Results of several laboratories.
# Numbered parts are unrelated; each lists some results of a single study.

# Sample 1 — method: RNA Bind-n-Seq; molecule type: RNA; matrix: in vitro; tested at: 100 nM; reference: input RNA pool; direction: higher = stronger binding
# Target: RING finger protein unkempt homolog, zinc fingers 1-6, SBP tag (UNK, Homo sapiens, UniProt Q9C0B0, residues 30-357)
# Chain of UniProt Q9C0B0 (30-357, looked up): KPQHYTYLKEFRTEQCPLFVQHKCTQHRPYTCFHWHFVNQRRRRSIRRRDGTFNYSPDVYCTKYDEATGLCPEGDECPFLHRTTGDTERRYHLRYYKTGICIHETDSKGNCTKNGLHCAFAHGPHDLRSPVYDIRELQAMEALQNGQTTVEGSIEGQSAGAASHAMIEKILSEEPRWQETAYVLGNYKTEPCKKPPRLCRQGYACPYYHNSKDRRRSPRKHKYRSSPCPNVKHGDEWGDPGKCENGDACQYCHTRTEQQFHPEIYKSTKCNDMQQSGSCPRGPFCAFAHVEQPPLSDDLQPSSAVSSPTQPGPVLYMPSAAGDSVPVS
# Notes: RNA with constant flanks, vertebrate orthologous sites, ends assumed
# Constant ends, left off below: GGGAGUUCUACAGUCCGACGAUC … CAACAGAGGAUUGAGCAUCA
Strand,bound/input enrichment [ratio]
AAUUGAACAAAAGCGUUUCCACUGGGUUUUGCCUGUAAGAAAAAAAUGUACCCGAGCACAUAGAGCUUUUUAAUAGCGCUAACCAAUGCCUUUUUAGAUGUAUUUUUGAUGUAUAUAUCU,0.659
CAUGUCCUUACUCCUGUGACCUUCAAACAUGCACAGUGCUCAUCUUUCCCCAGAUGAUUCUAGUAAUUGCCUAGAAAUAUUCUCGUACCUGUUAUUUAUCAAUUUUUCCCAGUAUUUUUA,1.86
ACCGAGGGACACCCAGCGGGGCGAGGAGCCACCCAGGGCAGCGAAGGCGGGGCGGGAUCGCUGCCGCCUGCACCGGCCGGGCUGCGCUCGCUGCCCUGUGCCCCCCUCUGGUGCAAAACC,1.23
AGAGCUCACAAACUGAAAGGAAAACUGUUAAAGAGUUUCUAAUAUUAACUAUUAGAAAGCUAGGAAAGAUUAGGACAAUUUUACAAAUGAGCAAUUAAAAAGAAAAUGAUCUGGGAACUA,0.383
UGUUGGGGGAGCCGGCGGAGUGGCGCUCUCCUCUCACUGUCCUUUCCUGGCUUCGCUUUCCUCGGGUGGGCAUGGGGUUGUGGCGCCCACUGACCCUGAGGCACGAGCGCUUGUGGUUCA,0.416
AAACUUGUAUUGGGGCACAUAGUCAACAUGGAAGUAGACCCGCCCCGCUGAUUUGAAAUGUAGAUGUUAAUUAUGUACUGGGGACAGGUUUCUGUCGCUUUACAUCGCUUCCUAGUUUAC,0.527
UCACUCUAAUUGUAAUCUGAAUAAAGUGUAACAUUCUGUAUGUAGCCUUUUAGUAUGAAAUAGACAAAUAGAAAAUGGUCCAAUUAGUUUCCUUUUUAAUAUGCUUAAAAUAAGCAGGUG,1.95
CUCUCUGAGCGAUAGUAUUCCAUCUGUAGCAGAUUCACACUCCAGCCAUUUCUCCGAGUUCAGCUGCUCAGAUAUGGAAAGUAUGAAAACUUCCUGUAGCCAUGGCUCCAGCGACUAUCA,0.271
GAGCUAAAGGAGUUAGCACCUUUAUUUUUGUAUCAAAGACAAAGGUUAUUUUGAAAUUAUUAGGAUUUUUACACAACUGUGAAAUCUGUUGCUUUUGUAAACAAGUUGUUUGAUCUUAGG,0.589
UAUUUUUGCACAUGACAGUGUUUGUGUUACUGAUCUCCUGAGGAAGAAGGGAGAGUGCUGUAGUGGUGGUGCCUGGGUGCCUGGCUUCCUGGCUCCCAGUGCCCCACCACCCCACCUAGC,0.692
UAAGAACUCUUGCAGUCUUAGAUGUUAUAAAAAAAUAUGUAUCUGAAUUGUAAGAGUUAUUAGUUUUUUUUUUUAAGCACUUGUUUUGGGUACAAGGCAUUUCUUUACUGAAAUUUUAUA,0.569

# Sample 2 — method: protein binding microarray; molecule type: double-stranded DNA, one strand shown; matrix: in vitro; tested at: not given; reference: not given; direction: higher = stronger binding
# Target: Histone acetyltransferase KAT6A, winged helix 1, GST fusion (KAT6A, Homo sapiens, UniProt Q92794, residues 1-85)
# Notes: 8-mer, flanks averaged, mean of 2 arrays, mostly near background
# Target sequence (chain): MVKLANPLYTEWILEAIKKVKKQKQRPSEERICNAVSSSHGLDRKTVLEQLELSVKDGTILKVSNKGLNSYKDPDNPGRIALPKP
Strand,E-score
CACAGGAG,-0.111
ACGGGTAC,0.316
AATGCCGC,0.421
AATGGTGA,-0.153
GACGTGAC,-0.0713
ACGCACGC,0.262
CATTCGCG,0.27
ACTGTAAT,-0.0503
CCAGTTAC,-0.0987
CCGCTTCG,0.259
ATGACACC,-0.216
ACCCCGAA,0.071
ACTCTTAT,-0.253
CGCCTACA,0.119
AAGATCGC,0.0398
GGTGGCGA,0.102
ACTCTAAT,-0.148
AACCGCAA,0.123
CCTGGCCG,0.0916
GCAAGCAA,-0.0671
CGCGACAA,0.3
CTTTGCAC,-0.25
CTTCGATA,0.0553
GCACTCCA,-0.0336
CCCAACCC,-0.0911

# Sample 3 — method: protein-binding microarray; molecule type: double-stranded DNA, one strand shown; matrix: in vitro; tested at: 2540 nM top; notes: 60-bp whole probe; with: salmon DNA 0.4 mg/ml; reference: random background probes; direction: higher = stronger binding; constant ends, left off below: GCCTAGCAC … GTCTTGATTCGCTTGACGCTGCTG
# Target: Interferon regulatory factor 3, full length, phosphomimetic (IRF3, Homo sapiens, UniProt Q14653, residues 1-427, S386D/S396D/S398D/S402D/T404D/S405D)
# Chain of UniProt Q14653 (whole entry, unmodified, looked up): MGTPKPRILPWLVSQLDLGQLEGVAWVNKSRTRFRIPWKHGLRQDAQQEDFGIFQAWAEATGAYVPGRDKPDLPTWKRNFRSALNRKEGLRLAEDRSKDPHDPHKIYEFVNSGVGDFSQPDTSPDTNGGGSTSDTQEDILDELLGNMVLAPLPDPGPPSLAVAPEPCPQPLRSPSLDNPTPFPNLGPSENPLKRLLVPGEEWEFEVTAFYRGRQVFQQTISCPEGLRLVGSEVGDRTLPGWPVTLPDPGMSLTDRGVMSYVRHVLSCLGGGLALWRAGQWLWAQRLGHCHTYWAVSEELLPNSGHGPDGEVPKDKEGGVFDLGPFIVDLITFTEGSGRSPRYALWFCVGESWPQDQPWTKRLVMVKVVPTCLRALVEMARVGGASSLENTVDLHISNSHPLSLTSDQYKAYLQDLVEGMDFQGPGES
Strand,fitted relative affinity [z-score]
TTAGGACAGGACACTGGGTTAGTGCTA,-0.492
GCCGGTATCCTTCTCCTGACGTGCTAG,7.3
GGCGGTCTCCTACTGCTGACGTGCTAG,1.02
GACGGTCTCGGTATGGGGACGTGCTAG,0.741
GACGATTTCAATTCCGAGACGTGCTAG,2.08
CTAGATATCAGTCTCGATTAGTGCTAG,1.41
GACGGTAACGACTTTCGGGACGTGCTA,0.404
GACGGACTCCTTATCCTGACGTGCTAG,0.904
TAAGATTTCAGTCTCGATTAGTGCTAG,2.31
TCAGTTTCCATTTTCAGACTGTGCTAG,10.4
TCATCATTGCCTATTTTACTGTGCTAG,0.467
TTTGGACTGGGTATCGGTTAGTGCTAG,0.307
GACGGACTGCTACTGCTGACGTGCTAG,-0.685
GACGATATCGGGTATCGACACGTGCTA,0.342
TCAGTCACCCATCTCAGACTGTGCTAG,1.5
TAAAATTTTGCTTCTAGAACGTGCTAG,0.623
TTAGACTCCAGTTTCGATTAGTGCTAG,3.1
TTAGGGCTCCTACTGCTTTAGTGCTAG,-0.31

# Sample 4 — method: RNA Bind-n-Seq; molecule type: RNA; matrix: in vitro; tested at: 365 nM; reference: no-protein control; direction: higher = stronger binding
# Target: RNA binding protein fox-1 homolog 2, RRM domain, GST-SBP tag (RBFOX2, Homo sapiens, UniProt O43251-10, residues 100-194)
# Notes: natural RNA segment, single round, ends assumed
# Constant ends, left off below: GGGAGUUCUACAGUCCGACGAUC … UGGAAUUCUCGGGUGCCAA
# Construct (chain): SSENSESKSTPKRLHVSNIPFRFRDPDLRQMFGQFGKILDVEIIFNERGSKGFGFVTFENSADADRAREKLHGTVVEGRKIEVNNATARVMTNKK
Strand,RBNS enrichment (R)
AUAAUAGUUCCAAUGUAUUGGCAUAAUUUGUUUGAAUGUCUUUAUUUUGAUAUUAACACCGGCAUAAAUCUAUUUUUGCUACCAGAUGAUAGCUAUUUUCAUUUGCUCUA,0.561
UUACCUUCAGACAUGGUGCCGUGUUGGGAGCAACCUCAGUGGGUUUGCACUACACUCACUCCGUGCUGCAAGUCCAGGGAUACUGUCUGUGGCCACUGAAGUCUCAGGUG,0.422
AGUUACCAACUUAAAAAUAAAAAAUCCGAACAACAUACUUGAAGAAUGUAAUACUCAAACUCUCAGUGCUUCCUUAUAAUUUCUAAUAGAAUUUUUUAUUAUUGUUAUUA,0.693
CAGGAGGGCCUGUAGAUAACCCUUCCAUUUCCUUCAUCUCAUCCAGUCUGUAGGGAUACAUUUUUCUGUGGUUGGUUUUCUUCAGCUAAGAGUCGCUGUCAGCAGGAGCU,0.281
UUUUUUAAAAAAAAUCUAUAAAUAGGGUAAUUGCUGAGGUGUGCGGUUUAUCUUUGAGAUGAUAAAGCUAAAUUAUAGUCUUUUGCCAGAGAAACUGAGGUAACUGUCAU,0.603
CACCUACCUCCUGGAGCACGUGUUGCUGCCCAGCUGGUGGCCAGCCACACCAACCCUGUGCUCUCUGGCCCCCAGCUGGCCACACUUCUCCAGGAGGGACCCUUGGACUU,0.178
UUGCCUUUGCUGUUGUAUGUAAAGUUUCAAAUUGCUCCUCUUGUGACUUUUCAGCCAGUACCAUUUUAUUUACCUGAGCUUGUCAUGGAAGUGGCAGUAAAAAGUAUUGA,0.574
GUUUUGAAAUGAUUGCUUCAGUCUUUGCCUUUGUUUGCAUUUGUGUUUAGUGAAAACUAGAGAAACACAAUAAGCAAAUCACUUGAAGGCUGAGAUGAUUGAACUGAAAG,0.302
UAAUUUUAAUUUUAUUUUAUACAACGUGUAGACGGUUCCCUGUUCUCUGCAUUUAGAAGUAUACACAGUACAACUGUUAAUUCUGUAAGUAAUUUUUAUAAUUAUGAUGU,1.03
AAAUAUGUGAUUCCAGGCUUAAGAAAUUGAUUAUAUUUUAAAAUAAUUAUUUUUUUAAAAACGUAAUUUGUUUUUAAAAGAUGAGUCUCCAUUCAUUGGCUAAUCCAUAC,0.828
UGUGAAGGGAUUGCACCAAGCCACAUUCACUCUCUCUGUGGCCUUUCUUCCUCUGGGCAAAGAAGGGCUUCCAGUGGCCUUUCCUCACUCUGUAGUGUUUGUGGGGAUAG,0.506
CCUCCAUCCCAGCCUGUUGCCCUUCAGUUUUCUGGUUGUUUGUGUCGGCAGCGGGCCAACUGUGGUUUCUCUCUUGCCAUGAUGACUUCUAAUUGCCAUGUAUAGUAUGU,1.62

# A few entries again (sample 2):
Strand,E-score
AATGGTGA,-0.153
GACGTGAC,-0.0713
ACGCACGC,0.262
CATTCGCG,0.27
ACTGTAAT,-0.0503
CCAGTTAC,-0.0987
CCGCTTCG,0.259
ATGACACC,-0.216
ACCCCGAA,0.071
ACTCTTAT,-0.253
